Published values pooled from the literature.
A part holds a random share of what one study measured.

Set 1 — method: protein-binding microarray; molecule type: double-stranded DNA, one strand shown; sample: in vitro; concentration: 250 nM; notes: 60-bp whole probe; added: salmon DNA 0.4 mg/ml; reference: random background probes; reading: higher = stronger binding; all sequences stand within: GCCTAGCAC … GTCTTGATTCGCTTGACGCTGCTG
Target: Interferon regulatory factor 5, full length, phosphomimetic (IRF5, Homo sapiens, UniProt Q13568-2, residues 1-514, K96S/S451D/S453D/S456D/S462D)
For `ATGAGCTTCAAACCATAACCGTGCTAG`, the log fluorescence was 0.0365 z-score.
For `GACGGTTTCGGGTAGCGGGACGTGCTA`, the log fluorescence was 7.61 z-score.
The log fluorescence of `GACTGTTTCGACTATCGGGACGTGCTA` is reported as 7.03 z-score.
`TTAGGTTTCGACTTTCGCTTAGTGCTA` has a log fluorescence of 8.85 z-score.
With `GACGGTATCGTTATCGGGACGTGCTAG` the log fluorescence was 3.15 z-score.

Set 2 — method: universal PBM; molecule type: double-stranded DNA, one strand shown; sample: in vitro; concentration: not given; reading: higher = stronger binding
Target: Sal-like protein 4, full length isoform B (SALL4, Homo sapiens, UniProt Q9UJQ4-2, residues 1-616)
Notes: 8-mer, flanks averaged, mean of replicates
With `GCGTTAGC` the E-score was -0.0358.
The E-score of `GGCCGAAC` is reported as -0.347.
With `AAAGCGCG` the E-score was -0.165.
`GACTATCA` gave an E-score of 0.145.
The E-score of `ATTGAAAC` is reported as 0.266.
For `AAGTACAT`, the E-score was 0.22.
`GCCCCCGA` gave an E-score of -0.184.
`GGGTCATA` has an E-score of 0.172.

Set 3 — method: competition protein-binding microarray; molecule type: double-stranded DNA, one strand shown; sample: in vitro; concentration: 2 µM; added: Cbf1 competitor, 0.05 µM; reading: higher = stronger binding
Target: Phosphate system positive regulatory protein PHO4, full length, GST-tagged (PHO4, Saccharomyces cerevisiae, UniProt P07270, residues 1-312)
Notes: whole 60-bp probe, lowest competitor level
Construct (chain): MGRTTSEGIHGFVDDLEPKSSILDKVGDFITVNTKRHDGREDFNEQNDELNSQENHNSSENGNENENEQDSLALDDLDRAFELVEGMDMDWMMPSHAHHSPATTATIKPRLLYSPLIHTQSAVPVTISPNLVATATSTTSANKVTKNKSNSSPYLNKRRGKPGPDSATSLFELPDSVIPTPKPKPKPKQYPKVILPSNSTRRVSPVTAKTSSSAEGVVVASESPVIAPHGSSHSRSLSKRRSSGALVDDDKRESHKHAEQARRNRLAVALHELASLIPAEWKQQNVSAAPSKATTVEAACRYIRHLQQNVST
The fluorescence intensity of `GGGCCCGCCCTGGGCCACGTGTTGCCTGCGGACCCGGTCTTGATTCGCTTGACGCTGCTG` is reported as 16800 a.u.
With `ATCTAATTGAACATTCTCGTGCGATTAAACGTCATTGTCTTGATTCGCTTGACGCTGCTG` the fluorescence intensity was 7830 a.u.
With `CTGAAACAAAACGGCCACGTGCTGTTTCAGCCTTGAGTCTTGATTCGCTTGACGCTGCTG` the fluorescence intensity was 15700 a.u.
`ATCGCTTCCTCCTCCTACATGACAGAGCTGGTACGCGTCTTGATTCGCTTGACGCTGCTG` gave a fluorescence intensity of 3510 a.u.

Single results of other studies
With `PhoQ, residues 284 288 289 292 302 303 AANNSF` the fold induction was 13.8 (PhoP, residues 12 14 15 18 19 SQCLL (Escherichia coli, UniProt P23836); Sort-seq, refers to: YFP reporter; E. coli; PhoQ-PhoP variant library, added: 10 µM Mg2+; reference: high Mg2+ state, higher = stronger signaling).

A few entries again (set 2):
`GACTATCA` gave an E-score of 0.145.
`GCCCCCGA` gave an E-score of -0.184.
